Measurements gathered from unrelated publications.
Parts stem from different laboratories: compare values within a part only.

Series 1 — method: protein-binding microarray; form: double-stranded DNA, one strand shown; matrix: in vitro; tested at: 2200 nM top; notes: 60-bp whole probe; added: salmon DNA 0.4 mg/ml; baseline: random background probes; direction: higher = stronger binding; all sequences stand within: GCCTAGCAC … GTCTTGATTCGCTTGACGCTGCTG
Target: Interferon regulatory factor 7, full length, phosphomimetic (IRF7, Homo sapiens, UniProt Q92985, residues 1-503, S471D/S472D/S475D/S476D/S477D/S483D/S484D/S487D)
Chain of UniProt Q92985 (whole entry, unmodified, looked up): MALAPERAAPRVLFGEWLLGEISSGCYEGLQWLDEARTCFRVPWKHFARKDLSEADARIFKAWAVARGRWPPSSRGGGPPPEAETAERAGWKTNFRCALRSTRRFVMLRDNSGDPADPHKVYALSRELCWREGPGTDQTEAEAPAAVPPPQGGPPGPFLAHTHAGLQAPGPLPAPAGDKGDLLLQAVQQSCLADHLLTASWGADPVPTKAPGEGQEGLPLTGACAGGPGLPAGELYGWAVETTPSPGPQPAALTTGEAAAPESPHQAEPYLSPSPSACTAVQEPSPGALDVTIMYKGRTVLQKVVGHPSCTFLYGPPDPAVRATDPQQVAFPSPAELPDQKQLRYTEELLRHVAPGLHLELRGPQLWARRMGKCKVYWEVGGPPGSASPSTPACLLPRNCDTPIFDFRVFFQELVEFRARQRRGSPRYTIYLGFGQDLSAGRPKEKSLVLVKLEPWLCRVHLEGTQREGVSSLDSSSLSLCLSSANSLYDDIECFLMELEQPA
| Strand | fitted relative affinity |
| --- | --- |
| TTAAATTTCGGGTTTCGATTAGTGCTA | 6.89 z-score |
| GACTATATCGGGACTGGAGACGTGCTA | -0.125 z-score |
| GACGGTGTCCTTCTCCTGACGTGCTAG | 0.556 z-score |
| TCATCTCTGGTTCTTGCACTGTGCTAG | 1.66 z-score |
| TCAGTTATCACTTCCAAACTGTGCTAG | 1.78 z-score |
| TGTGGTCTGTTTCTGATATGGTGCTAG | 1.36 z-score |

Series 2 — method: protein binding microarray; form: double-stranded DNA, one strand shown; matrix: in vitro; tested at: not given; baseline: not given; direction: higher = stronger binding
Target: Histone acetyltransferase KAT6A, winged helix 1, GST fusion (KAT6A, Homo sapiens, UniProt Q92794, residues 1-85)
Notes: 8-mer, flanks averaged, mean of 2 arrays, mostly near background
Residues (chain): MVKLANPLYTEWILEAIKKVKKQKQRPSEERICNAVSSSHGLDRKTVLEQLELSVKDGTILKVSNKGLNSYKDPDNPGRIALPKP
| Strand | E-score |
| --- | --- |
| ATCGCAAC | -0.0239 |
| CTCCTGCA | -0.222 |
| AGCTCAGG | -0.108 |
| GACCGCCA | 0.0991 |
| TAAGCTAA | -0.117 |
| AATGGAGA | -0.0872 |
| GGCCTTGA | -0.173 |

Series 3 — method: universal PBM; form: double-stranded DNA, one strand shown; matrix: in vitro; tested at: not given; direction: higher = stronger binding
Target: Sal-like protein 4, full length isoform B (SALL4, Homo sapiens, UniProt Q9UJQ4-2, residues 1-616)
Notes: 8-mer, flanks averaged, mean of replicates
Target sequence (chain): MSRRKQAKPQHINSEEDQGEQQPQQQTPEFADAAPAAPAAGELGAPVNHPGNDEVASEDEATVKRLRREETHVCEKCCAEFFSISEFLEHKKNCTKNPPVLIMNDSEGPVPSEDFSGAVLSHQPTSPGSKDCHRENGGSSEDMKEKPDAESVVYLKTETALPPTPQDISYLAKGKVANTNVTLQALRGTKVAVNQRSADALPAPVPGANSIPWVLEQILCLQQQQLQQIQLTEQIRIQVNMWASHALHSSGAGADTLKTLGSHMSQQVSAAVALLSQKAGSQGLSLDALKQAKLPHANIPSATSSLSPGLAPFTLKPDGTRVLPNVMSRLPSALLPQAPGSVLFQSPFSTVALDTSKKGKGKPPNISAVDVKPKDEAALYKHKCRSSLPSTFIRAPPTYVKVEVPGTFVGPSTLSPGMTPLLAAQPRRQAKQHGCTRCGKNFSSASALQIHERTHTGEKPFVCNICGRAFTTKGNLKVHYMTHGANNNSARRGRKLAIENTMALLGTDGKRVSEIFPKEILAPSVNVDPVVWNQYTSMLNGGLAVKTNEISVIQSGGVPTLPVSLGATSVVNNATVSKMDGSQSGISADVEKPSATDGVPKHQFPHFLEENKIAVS
| Strand | E-score |
| --- | --- |
| AGGCTCGC | -0.309 |
| CGCGGCAC | -0.264 |
| CAGTTGAC | -0.12 |
| CCTGGTGA | -0.199 |
| ATCCGAGA | -0.0689 |
| ATTAAGAA | 0.215 |
| AGATCGAA | 0.167 |
| CACTTTTA | 0.177 |

Series 4 — method: Sort-seq; item: YFP reporter; matrix: E. coli; notes: PhoQ-PhoP variant library; added: 10 µM Mg2+; baseline: high Mg2+ state; direction: higher = stronger signaling
Molecule: PhoQ, residues 284 288 289 292 302 303 ALAMYF
| target | fold induction |
| --- | --- |
| PhoP, residues 12 14 15 18 19 SHWTV (Escherichia coli, UniProt P23836) | 3.83 |
| PhoP, residues 12 14 15 18 19 STHWV (Escherichia coli, UniProt P23836) | 11 |
| PhoP, residues 12 14 15 18 19 QYCSL (Escherichia coli, UniProt P23836) | 3.65 |
